Results of several laboratories.
Each line is one published result; not all experiments were run side by side. Numbers after ± are the reported error.
ADORA1: Adenosine receptor A1 (ADORA1, Homo sapiens, UniProt P30542)
Sequence of UniProt P30542 (whole entry, looked up): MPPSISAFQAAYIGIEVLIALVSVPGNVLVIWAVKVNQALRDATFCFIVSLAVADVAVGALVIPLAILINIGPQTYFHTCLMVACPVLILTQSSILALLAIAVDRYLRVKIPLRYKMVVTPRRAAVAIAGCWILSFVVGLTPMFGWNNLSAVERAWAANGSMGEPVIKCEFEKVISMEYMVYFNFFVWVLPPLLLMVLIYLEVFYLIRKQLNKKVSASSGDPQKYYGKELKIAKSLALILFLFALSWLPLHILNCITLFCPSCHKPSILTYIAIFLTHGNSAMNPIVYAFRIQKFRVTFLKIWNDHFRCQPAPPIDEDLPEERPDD
ESR1: Estrogen receptor (ESR1, Homo sapiens, UniProt P03372)
Sequence of UniProt P03372 (whole entry, looked up): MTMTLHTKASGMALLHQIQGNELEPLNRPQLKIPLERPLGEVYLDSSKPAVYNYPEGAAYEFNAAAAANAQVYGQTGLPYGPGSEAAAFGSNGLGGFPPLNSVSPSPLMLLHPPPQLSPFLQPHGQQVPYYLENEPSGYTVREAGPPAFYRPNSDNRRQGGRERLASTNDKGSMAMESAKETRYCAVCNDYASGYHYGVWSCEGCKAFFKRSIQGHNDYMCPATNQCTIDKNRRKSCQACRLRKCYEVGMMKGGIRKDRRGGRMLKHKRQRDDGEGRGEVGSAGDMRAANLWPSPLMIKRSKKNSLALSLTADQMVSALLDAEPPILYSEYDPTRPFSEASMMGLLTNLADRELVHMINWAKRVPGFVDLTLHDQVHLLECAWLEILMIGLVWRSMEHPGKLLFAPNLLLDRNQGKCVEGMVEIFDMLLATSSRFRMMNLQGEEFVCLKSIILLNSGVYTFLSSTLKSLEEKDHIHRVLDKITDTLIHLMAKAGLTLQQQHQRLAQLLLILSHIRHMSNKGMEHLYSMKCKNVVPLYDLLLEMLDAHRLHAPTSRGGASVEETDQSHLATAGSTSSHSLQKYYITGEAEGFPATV
MTNR1A: Melatonin receptor type 1A (MTNR1A, Homo sapiens, UniProt P48039)
Sequence of UniProt P48039 (whole entry, looked up): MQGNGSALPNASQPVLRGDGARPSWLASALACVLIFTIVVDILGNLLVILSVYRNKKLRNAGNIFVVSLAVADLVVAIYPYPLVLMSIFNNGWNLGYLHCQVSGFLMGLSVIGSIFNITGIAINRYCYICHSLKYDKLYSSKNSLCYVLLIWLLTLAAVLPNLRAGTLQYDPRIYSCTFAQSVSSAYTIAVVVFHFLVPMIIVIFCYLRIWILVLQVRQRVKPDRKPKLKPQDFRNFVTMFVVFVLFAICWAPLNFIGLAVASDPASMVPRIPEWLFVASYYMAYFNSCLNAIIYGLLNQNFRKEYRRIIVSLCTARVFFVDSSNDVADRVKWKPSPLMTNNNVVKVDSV
ESR2: Estrogen receptor beta (ESR2, Homo sapiens, UniProt Q92731)
Sequence of UniProt Q92731 (whole entry, looked up): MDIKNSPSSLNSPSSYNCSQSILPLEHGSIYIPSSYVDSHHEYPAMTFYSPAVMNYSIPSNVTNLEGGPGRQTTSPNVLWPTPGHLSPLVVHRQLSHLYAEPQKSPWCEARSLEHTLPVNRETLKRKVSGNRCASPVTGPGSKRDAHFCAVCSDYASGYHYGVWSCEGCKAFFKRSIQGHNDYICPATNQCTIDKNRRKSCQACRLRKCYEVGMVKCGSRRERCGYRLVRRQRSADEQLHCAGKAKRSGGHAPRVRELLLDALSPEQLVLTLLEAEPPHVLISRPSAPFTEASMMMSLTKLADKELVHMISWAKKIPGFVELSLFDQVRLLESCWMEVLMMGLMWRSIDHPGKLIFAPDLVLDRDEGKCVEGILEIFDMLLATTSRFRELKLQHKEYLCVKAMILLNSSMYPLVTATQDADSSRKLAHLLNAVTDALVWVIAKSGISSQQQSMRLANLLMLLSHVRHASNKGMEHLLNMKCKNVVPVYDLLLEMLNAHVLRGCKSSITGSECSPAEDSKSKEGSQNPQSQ
Sequence of UniProt Q9NYW4 (whole entry, looked up): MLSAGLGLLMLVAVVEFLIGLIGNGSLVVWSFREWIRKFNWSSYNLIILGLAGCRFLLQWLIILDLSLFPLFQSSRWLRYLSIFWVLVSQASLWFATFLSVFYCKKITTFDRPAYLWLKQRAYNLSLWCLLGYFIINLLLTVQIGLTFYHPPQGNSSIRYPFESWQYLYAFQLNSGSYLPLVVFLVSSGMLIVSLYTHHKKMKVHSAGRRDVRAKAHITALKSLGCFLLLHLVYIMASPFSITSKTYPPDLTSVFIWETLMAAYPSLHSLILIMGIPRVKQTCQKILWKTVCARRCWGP
Sequence of UniProt Q16602 (whole entry, looked up): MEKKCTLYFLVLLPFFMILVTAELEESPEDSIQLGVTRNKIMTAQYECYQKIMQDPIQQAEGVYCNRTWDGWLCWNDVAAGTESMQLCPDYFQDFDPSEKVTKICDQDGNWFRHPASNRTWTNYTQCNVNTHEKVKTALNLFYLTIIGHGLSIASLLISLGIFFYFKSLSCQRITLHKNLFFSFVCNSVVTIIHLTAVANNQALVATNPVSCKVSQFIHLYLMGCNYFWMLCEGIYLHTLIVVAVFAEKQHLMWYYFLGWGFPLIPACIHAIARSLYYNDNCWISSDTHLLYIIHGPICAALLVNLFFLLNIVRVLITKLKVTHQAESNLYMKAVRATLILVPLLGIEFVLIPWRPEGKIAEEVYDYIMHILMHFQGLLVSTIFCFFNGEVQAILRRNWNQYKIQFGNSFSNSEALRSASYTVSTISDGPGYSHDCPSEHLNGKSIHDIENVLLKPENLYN
Sequence of UniProt Q8BZP8 (whole entry, looked up): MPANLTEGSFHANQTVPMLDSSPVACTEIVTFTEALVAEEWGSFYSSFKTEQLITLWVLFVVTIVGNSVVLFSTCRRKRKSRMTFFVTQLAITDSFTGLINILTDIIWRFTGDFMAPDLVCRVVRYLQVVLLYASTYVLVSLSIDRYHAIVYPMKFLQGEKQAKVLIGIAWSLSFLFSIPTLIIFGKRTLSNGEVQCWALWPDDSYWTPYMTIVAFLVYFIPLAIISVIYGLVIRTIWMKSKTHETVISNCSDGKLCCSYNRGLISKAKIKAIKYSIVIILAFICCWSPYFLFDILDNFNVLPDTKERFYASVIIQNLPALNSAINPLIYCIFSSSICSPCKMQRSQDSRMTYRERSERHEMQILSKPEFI
Sequence of UniProt Q13131 (whole entry, looked up): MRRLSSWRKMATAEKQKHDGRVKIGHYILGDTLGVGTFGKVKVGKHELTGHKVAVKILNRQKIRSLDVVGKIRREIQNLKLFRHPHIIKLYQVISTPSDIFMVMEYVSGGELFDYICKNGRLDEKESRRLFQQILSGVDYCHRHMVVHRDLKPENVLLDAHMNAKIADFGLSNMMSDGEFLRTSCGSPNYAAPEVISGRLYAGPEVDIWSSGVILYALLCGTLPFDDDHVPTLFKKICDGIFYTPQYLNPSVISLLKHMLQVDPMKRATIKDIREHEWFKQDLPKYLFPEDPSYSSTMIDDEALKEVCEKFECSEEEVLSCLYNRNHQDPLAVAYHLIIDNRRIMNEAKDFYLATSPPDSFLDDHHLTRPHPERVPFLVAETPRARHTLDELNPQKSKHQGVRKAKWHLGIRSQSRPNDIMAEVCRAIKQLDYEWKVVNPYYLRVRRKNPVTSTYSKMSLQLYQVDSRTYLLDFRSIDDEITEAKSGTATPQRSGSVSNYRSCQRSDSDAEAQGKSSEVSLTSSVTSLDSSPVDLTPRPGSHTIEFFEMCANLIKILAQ
Sequence of UniProt P19793 (whole entry, looked up): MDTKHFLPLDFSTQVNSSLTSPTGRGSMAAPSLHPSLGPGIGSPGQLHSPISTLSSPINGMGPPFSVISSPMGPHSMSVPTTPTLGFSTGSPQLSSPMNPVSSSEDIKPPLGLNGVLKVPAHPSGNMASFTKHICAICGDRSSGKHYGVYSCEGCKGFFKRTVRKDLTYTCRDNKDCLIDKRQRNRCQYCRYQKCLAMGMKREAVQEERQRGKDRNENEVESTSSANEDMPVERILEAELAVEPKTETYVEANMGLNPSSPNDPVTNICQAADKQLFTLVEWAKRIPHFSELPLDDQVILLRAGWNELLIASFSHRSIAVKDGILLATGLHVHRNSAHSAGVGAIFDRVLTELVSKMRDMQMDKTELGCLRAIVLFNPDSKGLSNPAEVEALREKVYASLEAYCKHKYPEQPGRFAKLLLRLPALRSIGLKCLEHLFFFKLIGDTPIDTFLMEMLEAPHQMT
Sequence of UniProt P41968 (whole entry, looked up): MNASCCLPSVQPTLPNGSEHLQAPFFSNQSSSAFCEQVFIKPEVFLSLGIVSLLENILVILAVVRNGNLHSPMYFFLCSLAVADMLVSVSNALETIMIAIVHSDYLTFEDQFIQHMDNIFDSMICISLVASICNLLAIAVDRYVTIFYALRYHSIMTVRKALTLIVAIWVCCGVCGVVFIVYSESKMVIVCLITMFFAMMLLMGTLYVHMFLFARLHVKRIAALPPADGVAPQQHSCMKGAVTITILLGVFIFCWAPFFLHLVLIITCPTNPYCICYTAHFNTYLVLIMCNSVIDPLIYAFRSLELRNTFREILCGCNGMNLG
Sequence of UniProt O60894 (whole entry, looked up): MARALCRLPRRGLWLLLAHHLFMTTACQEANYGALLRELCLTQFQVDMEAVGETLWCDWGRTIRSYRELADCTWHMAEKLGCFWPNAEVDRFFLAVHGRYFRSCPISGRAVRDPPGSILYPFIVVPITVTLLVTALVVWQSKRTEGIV
Sequence of UniProt Q9Y478 (whole entry, looked up): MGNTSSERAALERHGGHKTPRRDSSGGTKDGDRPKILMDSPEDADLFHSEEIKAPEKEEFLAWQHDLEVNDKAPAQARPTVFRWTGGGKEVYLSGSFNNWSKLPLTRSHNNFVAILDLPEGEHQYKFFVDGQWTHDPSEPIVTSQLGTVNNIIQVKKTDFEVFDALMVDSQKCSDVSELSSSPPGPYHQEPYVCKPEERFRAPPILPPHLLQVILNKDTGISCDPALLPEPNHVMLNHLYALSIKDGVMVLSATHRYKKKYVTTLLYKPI

Compound | target | test | system | conditions | EC50 [nM]
CC(=O)C1=C(C)NC(SCC(=O)c2ccccc2)=C(C#N)C1c1sccc1C (stereo not drawn) | NR3C1 (Homo sapiens, UniProt P04150) | binding, competitor, TR-FRET |  |  | 530 ± 50
CC(C)C[C@H](NC(=O)[C@@H](N)[C@@H](C)O)C(=O)N[C@@H](CCC(N)=O)C(=O)N1CCC[C@H]1C(=O)N1CCC[C@H]1C(=O)N[C@@H](C)C(=O)N[C@@H](CO)C(=O)N[C@@H](CO)C(=O)N[C@@H](CCCNC(=N)N)C(=O)N[C@@H](CCCNC(=N)N)C(=O)N[C@@H](CCCNC(=N)N)C(=O)N[C@@H](Cc1c[nH]cn1)C(=O)N[C@@H](Cc1ccccc1)C(=O)N[C@@H](Cc1c[nH]cn1)C(=O)N[C@@H](Cc1c[nH]cn1)C(=O)N[C@@H](C)C(=O)N[C@@H](CC(C)C)C(=O)N1CCC[C@H]1C(=O)N1CCC[C@H]1C(=O)N[C@@H](C)C(=O)N[C@@H](CCCNC(=N)N)C(=O)O | C3AR1 (Homo sapiens, UniProt Q16581) | G protein activation, agonist, BRET |  |  | 131
COc1ccc(C2=NOC(CN3CCC(N4CCCC4=O)c4ccccc43)C2)cc1OC (stereo not drawn) | ABCG2 (Homo sapiens, UniProt Q9UNQ0) | ATPase activity, activator |  | 20 min, pH 6.8, cell membranes | 170
O=C1C(=O)c2cccnc2-c2ncccc21 | TAS2R5 (Homo sapiens, UniProt Q9NYW4) | calcium signal, agonist, fluorescence |  |  | 540
N=C(N)NCCC[C@H](NC(=O)[C@H](CC(=O)O)NC(=O)[C@@H]1CSCCC(=O)NCC(=O)N[C@@H](Cc2c[nH]cn2)C(=O)N[C@H](Cc2ccccc2)C(=O)N[C@@H](CCCNC(=N)N)C(=O)N[C@H](Cc2c[nH]c3ccccc23)C(=O)N1)C(=O)N[C@@H](Cc1ccccc1)C(=O)NCC(N)=O | MC3R (Homo sapiens, UniProt P41968) | cAMP, agonist |  |  | 1100
Cc1cc(N/C=C(\C(=O)NC2CCC2)C(=O)c2ccc(Cl)cc2Cl)no1 | GABA A receptor alpha-2/beta-2/gamma-2 (Homo sapiens, UniProt P18507+P47869+P47870) | GABA current potentiation, positive modulator, two-electrode voltage clamp | Xenopus laevis oocytes | 30 s preincubation, added: GABA EC10 | 18 ± 8
CCNC(=O)[C@H]1O[C@@H](n2cnc3c(NCCCNC(=O)CCCCCNC(=O)COc4ccc(/C=C/C5=[N+]6C(=Cc7ccc(-c8cccs8)n7[B-]6(F)F)C=C5)cc4)ncnc32)[C@H](O)[C@@H]1O | ADORA1 | CRE-SPAP reporter gene, agonist | CHO-A1 | Gs enhancement, added: forskolin | 661
Cc1ccc(Oc2nc3cc(-c4ccc5c(ccn5C)c4)c(Cl)cc3[nH]2)cc1C(=O)O | PRKAA1/PRKAB1, with gamma1 (Homo sapiens, UniProt Q13131+Q9Y478) | enzyme activity, activator, kinase |  | α1β1γ1 complex, added: SAMS peptide substrate | 30
O=C1/C(=C\c2cccc(F)c2)Oc2cc(O)ccc21 | ESR1 | coactivator recruitment, agonist |  |  | 1850
N=C(N)NCCC[C@H](NC(=O)[C@H](Cc1ccccc1)NC(=O)[C@@H](N)CO)C(=O)N[C@@H](CC(N)=O)C(=O)NCC(N)=O | Neuropeptide S receptor (Mus musculus, UniProt Q8BZP8) | cAMP, agonist, TR-FRET |  |  | > 10000
C=CCc1cccc(-c2cc(/C=C/C(=O)O)ccc2O)c1 | RXRA (Homo sapiens, UniProt P19793) | reporter gene, agonist, luciferase |  |  | 6.3
CCNC(=O)[C@H]1O[C@@H](n2cnc3c(NCCCCNS(=O)(=O)c4cccc5c(N(C)C)cccc45)ncnc32)[C@H](O)[C@@H]1O | ADORA1 | reporter gene, agonist |  |  | > 10000
O=C(NCc1ccsc1)N1CCN(C(Cc2cccc(O)c2)c2ccccc2)CC1 (stereo not drawn) | OPRM1 (Homo sapiens, UniProt P35372) | β-arrestin recruitment, agonist | U2OS with GRK2 |  | 72
CSCC[C@H](NC(=O)[C@H](CC(C)C)NC(=O)[C@H](CCC(N)=O)NC(=O)[C@H](Cc1c[nH]c2ccccc12)NC(=O)[C@H](CC(C)C)NC(=O)[C@H](CCCNC(=N)N)NC(=O)[C@H](Cc1c[nH]cn1)NC(=O)[C@H](CO)NC(=O)[C@H](CC(C)C)NC(=O)[C@H](CC(N)=O)NC(=O)[C@H](CCC(N)=O)NC(=O)[C@@H](NC(=O)[C@H](CCC(N)=O)NC(=O)[C@@H]1CSSC[C@H](NC(=O)CNC(=O)[C@@H](N)C(C)C)C(=O)N[C@@H](C(C)C)C(=O)N[C@@H](CC(C)C)C(=O)NCC(=O)N[C@@H]([C@@H](C)O)C(=O)N1)C(C)C)C(=O)NCC(=O)N1CCC[C@H]1C(=O)N[C@@H](C)C(=O)NCC(=O)N[C@@H](CCCCN)C(=O)N[C@@H](CCC(N)=O)C(=O)N[C@@H](CC(=O)O)C(=O)N[C@@H](CO)C(=O)N[C@@H](C)C(=O)N1CCC[C@H]1C(=O)N[C@H](C(=O)N[C@@H](CC(=O)O)C(=O)N1CCC[C@H]1C(=O)N[C@@H](CO)C(=O)N[C@@H](CO)C(=O)N1CCC[C@H]1C(=O)N[C@@H](Cc1c[nH]cn1)C(=O)N[C@@H](CO)C(=O)N[C@@H](Cc1ccc(O)cc1)C(N)=O)C(C)C | Calcitonin-gene-related peptide receptor, CALCRL/RAMP1 (Homo sapiens, UniProt O60894+Q16602) | cAMP, agonist, CAMYEL BRET | COS-7 | 37 °C | 2.88
O=S(=O)(Oc1cccc(Cl)c1)C1CC2OC1C(c1ccc(O)cc1)=C2c1ccc(O)cc1 (racemic) | ESR1 | reporter gene, agonist, luciferase |  |  | 210
CC/C(=C(\c1ccccc1)c1ccc(OCCN(C)CCCCCCC(=O)NCCCOc2ccc3[nH]cc(CCNC(C)=O)c3c2)cc1)c1ccccc1 | MTNR1A | phosphorylation in cells, agonist, AlphaScreen |  |  | 98
CC(C)C[C@@H]1NC(=O)[C@H](CCCNC(=N)N)NC(=O)[C@H](C(C)C)NC(=O)[C@H](Cc2c[nH]cn2)NC(=O)[C@H](Cc2c[nH]cn2)NC(=O)CNC(=O)[C@H](CCCCN)NC(=O)[C@H](CC(C)C)NC(=O)[C@H](CC(N)=O)NC(=O)[C@H]([C@@H](C)O)NC(=O)[C@H](CO)NC(=O)[C@H](CC(N)=O)NC(=O)[C@@H]2CCCN2C(=O)[C@H](CO)NC(=O)[C@@H]2CCCN2C(=O)[C@H](C(C)C)NC(=O)[C@H](CCCNC(=N)N)NC(=O)[C@H](Cc2c[nH]cn2)NC(=O)[C@@H]2CSSC[C@H](NC1=O)C(=O)N[C@@H](CCCCN)C(=O)N1CCC[C@H]1C(=O)N[C@H](C(=O)N[C@@H](CCCCN)C(=O)N[C@@H](CC(C)C)C(=O)N[C@@H](CCC(=O)O)C(=O)N1CCC[C@H]1C(=O)N[C@@H](CCC(=O)O)C(=O)N1CCC[C@H]1C(=O)N[C@@H](CCCNC(=N)N)C(=O)N[C@@H](CC(C)C)C(=O)N[C@@H](Cc1c[nH]c3ccccc13)C(=O)N[C@H](C(=O)N[C@H](C(=O)N1CCC[C@H]1C(=O)NCC(=O)N[C@@H](C)C(=O)N[C@@H](CC(C)C)C(=O)N1CCC[C@H]1C(=O)N[C@@H](CCC(N)=O)C(=O)N[C@H](C(=O)O)C(C)C)C(C)C)C(C)C)CSSC[C@H](NC(=O)[C@H](CC(C)C)NC(=O)[C@H](CCCNC(=N)N)NC(=O)[C@@H](NC(=O)[C@H](CCCNC(=N)N)NC(=O)[C@H](CCCNC(=N)N)NC(=O)CNC(=O)[C@H](CO)NC(=O)[C@H](Cc1c[nH]c3ccccc13)NC(=O)[C@H](C)NC(=O)[C@H](CCCCN)NC(=O)[C@H](C)NC(=O)[C@@H]1CCCN1C(=O)[C@H](CCCNC(=N)N)NC(=O)[C@H](CCCNC(=N)N)NC(=O)[C@@H](N)CCCCN)[C@@H](C)O)C(=O)N2 | G-protein coupled receptor 15, with Gi3 (Homo sapiens, UniProt P49685) | Gi3 activation, agonist, BRET | HEK293A transfected GPR15 |  | 20.4
CN(Cc1cccc(F)c1)C(=O)c1ccc(O)c(Cl)c1 | ESR2 | coactivator recruitment, agonist |  |  | 1410
CC/C(=C(\c1ccccc1)c1ccc(OCCN(C)CCCCC(=O)NCCc2c[nH]c3ccc(OC)cc23)cc1)c1ccccc1 | MTNR1A | cAMP, agonist |  |  | 2510
N#CC(=Cc1ccc(O)cc1)c1ccc(Cl)cc1Cl | ESR2 | coactivator recruitment, agonist |  |  | 130
O=S(=O)(Oc1cccc(F)c1)C1CC2OC1C(c1ccc(O)cc1)=C2c1ccc(O)cc1 (racemic) | ESR1 | reporter gene, agonist, luciferase |  |  | 140

Repeated from above:
Compound | target | test | system | conditions | EC50 [nM]
Cc1ccc(Oc2nc3cc(-c4ccc5c(ccn5C)c4)c(Cl)cc3[nH]2)cc1C(=O)O | PRKAA1/PRKAB1, with gamma1 (Homo sapiens, UniProt Q13131+Q9Y478) | enzyme activity, activator, kinase |  | α1β1γ1 complex, added: SAMS peptide substrate | 30
O=C1/C(=C\c2cccc(F)c2)Oc2cc(O)ccc21 | ESR1 | coactivator recruitment, agonist |  |  | 1850
N=C(N)NCCC[C@H](NC(=O)[C@H](Cc1ccccc1)NC(=O)[C@@H](N)CO)C(=O)N[C@@H](CC(N)=O)C(=O)NCC(N)=O | Neuropeptide S receptor (Mus musculus, UniProt Q8BZP8) | cAMP, agonist, TR-FRET |  |  | > 10000
